Measured values collected from several papers.
Each line is one published result; not all experiments were run side by side. Numbers after ± are the reported error.

| SMILES | assay | system | conditions | measurement | result |
| --- | --- | --- | --- | --- | --- |
| O=C(COc1ccc(Cl)cc1)NC12CC(c3nnc([C@H]4C[C@@H](OC(F)(F)F)C4)o3)(C1)C2 | – | healthy human both sexes, plasma | oral, 45 mg once daily, day 14, mean | steady-state Ctrough | 1.54 µM |
| Cn1cnc2c(F)c(Nc3ccc(Br)cc3Cl)c(C(=O)NOCCO)cc21 | population PK model | human, plasma | oral, zero-order absorption model, fasted | zero-order absorption duration | 0.65 h |
| CC[N+]([O-])(CC)CCNC(=O)c1c(C)[nH]c(/C=C2\C(=O)Nc3ccc(F)cc32)c1C | – | human, serum | 37.5 mg maintenance, median | serum concentration/dose ratio | 0.011 |
| CC(C)n1c(Nc2cccnc2)nc2cnc(Nc3ccc(N4CCN(C)CC4)cc3)nc21 | refers to: oral ulcers | healthy male subjects | oral, 100 mg, study, together with: itraconazole | subjects with adverse event | 28.6% |
| COc1ccc([C@@H](O)c2cc(-c3ncnc4cc(N5CCOCC5)ccc34)c(F)cc2Cl)nn1 | – | locally advanced rectal cancer patients | 250 mg, together with: capecitabine and radiotherapy | diarrhoea TEAE incidence | 83% |
| O=C(O)c1cccnc1Nc1cccc(C(F)(F)F)c1 | shake-flask, potentiometric | 1-octanol/water | – | logP | 3.7 |
| COc1ccccc1OCCNCC(O)COc1cccc2[nH]c3ccccc3c12 (stereo not drawn) | – | 0.2% w/v HPMC | pH 6.5, 37 °C, supersaturation ratio 5 | nucleation induction time | 0.78 ± 0.12 min |
| COc1ccc(C=CC(=O)O)cc1OS(=O)(=O)O | – | human, cerebrospinal fluid | concentration not given, mean | CSF concentration | 12.9 nM |
| COCCOc1cnc2ccn([C@H](C)c3nnc4c(F)cc(-c5cnn(C)c5)cn34)c(=O)c2c1 | – | patients, plasma | oral, 25 mg once daily, day 1 24 h postdose | Ctrough | 0.03 µg/mL |
| C=CC[C@@H]1/C=C(\C)C[C@H](C)C[C@H](OC)[C@H]2O[C@@](O)(C(=O)C(=O)N3CCCC[C@H]3C(=O)O[C@H](/C(C)=C/[C@@H]3CC[C@@H](O)[C@H](OC)C3)[C@H](C)[C@@H](O)CC1=O)[C@H](C)C[C@@H]2OC | – | Wistar Kyoto rat, male, plasma | ip, 0.5 mg/kg/day, day 18 | plasma Na+ level, median | 141 mmol/L |
| COC/C=C/c1cc(C2CC2c2ccc3c(c2)C(C(C)C)N(C)CC3)cc2ccc(C(=N)N)cc12 (stereo not drawn) | – | octanol/buffer | pH 11, urokinase ligand set | logP | > 4.5 |
| COc1cc2c(Nc3ccc(Cl)c(Cl)c3F)ncnc2cc1OC[C@@H]1C[C@@H]2CN(C)C[C@@H]2C1 | – | FVB Mdr1a/b(-/-) Bcrp1(-/-) mouse | oral, 70 mg/kg, 2 h | total brain concentration | 10000 ng/mL |
| Cc1cc(NC(=O)c2cccc(NC(=O)/C=C/CN(C)C)c2)ccc1Nc1nccc(-c2cccnc2)n1 | metabolic stability | Wistar rat, male, primary hepatocytes | 1 µM, 10 min | compound remaining | 90.1% |
| Cc1cc(-c2nccc3c2ccn3CC(=O)Nc2ccc(-c3cnccn3)cn2)ccn1 | – | human | 5 mg once daily, multiple ascending dose | post-procedural inflammation | 0% |
| COc1ccc(C(=O)CSc2nnc(-c3ccc(OC)c(OC)c3)n2-c2ccccc2)cc1 | – | octanol/buffer | pH 11, known kinase inactives set | logP | 3.72 |
| CC(C)(C(=O)N1CCOc2c(C#N)cncc2C1)C(F)F | refers to: Conjunctivitis | human | oral, 10 mg once daily, 14 days, multiple ascending dose | subjects with adverse event | 0% |
| CC(C)c1nc(N(C)S(C)(=O)=O)nc(-c2ccc(F)cc2)c1/C=C/[C@@H](O)C[C@@H](O)CC(=O)O | – | rat, Wistar albino, plasma | oral, 20 mg/kg | elimination rate constant | 1.94e-05 s⁻¹ |
| FC(F)(F)c1ccc(CNc2ccc(Cc3c[nH]c4ncc(Cl)cc34)cn2)cn1 | refers to: periorbital oedema | human, advanced solid tumours, non-TGCT cohort | oral, 1000 mg/day, grade 3 or higher | treatment-related adverse events | 0% |
| O=C(OC(C(F)(F)F)C(F)(F)F)N1CCN(Cc2cccc(Oc3ccccc3)c2)CC1 | PET blocking study | rhesus monkey, brain CB | 0.1 mg/kg, compound pretreatment, together with: [18F]T-401 tracer | Ktrans | 0.0193 min⁻¹ |
| CN(CC#N)C(=O)C[C@H](Nc1nc2ccccc2[nH]1)c1cccc(C(F)(F)F)c1 | – | human | intravenous infusion, 2 mg/kg, 1 mg/mL formulation | steady-state volume of distribution | 49.1 ± 4.73 L |
| COc1c(OCCCN2CCOCC2)ccc2c1N=C(NC(=O)c1cnc(N)nc1)N1CCN=C21 | – | human | concentration not given, together with: rifampin | increase in V1 | 108% |

A few entries again:
| SMILES | assay | system | conditions | measurement | result |
| --- | --- | --- | --- | --- | --- |
| Cc1cc(NC(=O)c2cccc(NC(=O)/C=C/CN(C)C)c2)ccc1Nc1nccc(-c2cccnc2)n1 | metabolic stability | Wistar rat, male, primary hepatocytes | 1 µM, 10 min | compound remaining | 90.1% |
| COc1c(OCCCN2CCOCC2)ccc2c1N=C(NC(=O)c1cnc(N)nc1)N1CCN=C21 | – | human | concentration not given, together with: rifampin | increase in V1 | 108% |
